Assay results pooled from the literature.
Compare with care: the assays were run in different laboratories.

C(=C/c1ccccc1)/c1ccccc1 has an EC50 of over 50000 nM (K562; apoptosis, flow cytometry, measured: caspase-3 activity; 24 h, 50% apoptosis induction).
For C/C=C(/C)C(=O)O[C@H]1C(C)=C[C@]23C(=O)[C@@H](C=C(CO)[C@@H](O)[C@]12O)[C@H]1[C@@H](C[C@H]3C)C1(C)C, the EC50 was 250000 nM (HSC-5; cytotoxicity, PrestoBlue; 30 min, 10% FBS).
C=C1[C@H](O)CC(=C/C=C2\CCC[C@]3(C)[C@@H]([C@@H](C)CCCC)CC[C@@H]23)C[C@H]1O has an EC50 of 3 nM (rat osteosarcoma cells; reporter gene, activator, luciferase, measured: CYP24A1 (24-hydroxylase) promoter; 50% increase).
Cc1sc2c(c1C)C(c1ccc(Cl)cc1)=N[C@@H](CC(=O)NCC(=O)N1CCC3(CCC(C(=O)N4CCN(C(=O)c5cc(Cc6n[nH]c(=O)c7ccccc67)ccc5F)CC4)CC3)CC1)c1nnc(C)n1-2 has an EC50 of 0.78 nM (SU-DHL-5; cell growth or viability, ATP luminescence; 72 h).
CC(C)c1cnc(-c2cc(Cl)ccc2F)cc1Nc1ccncc1C(=O)NC(CO)CO has an EC50 of 31 nM (expanded human pan T cells; reversal of IL-2 suppression; with: TGF-beta).
With C=C1[C@H](O)CC(=C/C=C2\CCC[C@]3(C)[C@@H]([C@H](C)CCCCO)CC[C@@H]23)C[C@H]1O the EC50 was 4 nM (rat osteosarcoma cells; reporter gene, activator, luciferase, measured: CYP24A1 (24-hydroxylase) promoter; 50% increase).
For FC(F)(F)c1ccnc(-c2cc(C(F)(F)F)ccn2)c1.FC(F)(F)c1ccnc(-c2cc(C(F)(F)F)ccn2)c1.[Cl-].[Cl-].[Ru+2].c1csc(-c2ccc(-c3ccc(-c4nc5c6cccnc6c6ncccc6c5[nH]4)s3)s2)c1, the EC50 was 197000 nM (SK-MEL-28; cell viability, resazurin; dark, mean normoxia and hypoxia).
O=c1c(-c2ccccc2)c[nH]n1-c1ccccn1 gave an EC50 of 5900 nM (A549 HRE-luciferase reporter; HIF reporter gene, activator).
Cc1cc(Nc2ccc(NC(=O)c3ccc(NC(=O)c4ccncc4)cc3)cc2)nc(N)n1 gave an EC50 of 1300 nM (KG-1; cell proliferation; 3 days, 15 % fetal calf serum).
O=c1c(-n2ccnc2)c[nH]n1-c1ccccn1 gave an EC50 of over 20000 nM (A549 HRE-luciferase reporter; HIF reporter gene, activator).
The EC50 of O=c1c(-c2cnn(-c3ccccc3)c2)c(C(F)(F)F)oc2c(O)c(O)ccc12 is reported as over 100000 nM (breast, liver, lung tumour lines; cytotoxicity, annexin V).
